Experimental data of several laboratories.
Protocols differ between the studies behind these lines.
Organism: Enterococcus faecalis

SMILES	read-out	method	strain	sample	time	temperature	MIC
O=C1c2ccccc2NC(c2ccc([N+](=O)[O-])cc2)N1/N=C/c1ccc([N+](=O)[O-])cc1 (centres unmarked)		broth microdilution	VRE 368, vancomycin-resistant	brain-heart infusion	24 h		> 256 µg/mL
CN1C(=O)[C@@H]2NC(=O)[C@@H]3NC(=O)[C@@H](c4ccc(O)cc4)NC(=O)[C@H](NC(=O)C(NCc4cccc(F)c4F)c4ccc(O)cc4)Cc4c[nH]c5cc(ccc45)-c4cc3cc(c4O)Oc3ccc(cc3)C[C@H]1C(=O)N[C@@H](C(=O)O)c1ccc(O)c(c1)Oc1ccc2cc1 (some centres unmarked)				brain heart infusion medium			16 µg/mL
CN[C@@H]1[C@H](O)[C@H](NC)[C@H]2O[C@]3(O)[C@H](O[C@@H]2[C@H]1O)O[C@H](C)C[C@@]3(O)CNCc1ccc(F)cc1			ATCC 33186				12.5 to 25 µg/mL
CCCCCCCCCCCCCCCCSCC1OC(OC2C(N)CC(N)C(OC3OC(CN)C(O)CC3N)C2O)C(O)C(N)C1O (centres unmarked)			ATCC 29212				18.8 µg/mL
CN1C(=O)[C@@H]2NC(=O)[C@@H]3NC(=O)[C@@H](c4ccc(O)cc4)NC(=O)[C@H](NC(=O)C(NCc4ccc(B(O)O)cc4)c4ccc(O)cc4)Cc4c[nH]c5cc(ccc45)-c4cc3cc(c4O)Oc3ccc(cc3)C[C@H]1C(=O)N[C@@H](C(=O)O)c1ccc(O)c(c1)Oc1ccc2cc1 (some centres unmarked)				brain heart infusion medium			8 µg/mL
CCc1ccc([C@@H]2C[C@H](C(F)(F)F)n3ncc(C(=O)NCc4ccc(OC)cc4)c3N2)cc1	microbial growth	broth dilution					> 64 µM
O=[N+]([O-])c1ccc2c(c1)C=[N+]1N3C(=[O+][Cu-2]1([Cl])[O]2)c1ccccc1NC3c1cc([N+](=O)[O-])ccc1O (centres unmarked)		broth microdilution	vancomycin-resistant 725 B		24 h		256 µg/mL
CN1C(=O)[C@@H]2NC(=O)[C@@H]3NC(=O)[C@@H](c4ccc(O)cc4)NC(=O)[C@H](NC(=O)C(NCc4ccc(Br)cc4)c4ccc(O)cc4)Cc4c[nH]c5cc(ccc45)-c4cc3cc(c4O)Oc3ccc(cc3)C[C@H]1C(=O)N[C@@H](C(=O)O)c1ccc(O)c(c1)Oc1ccc2cc1 (some centres unmarked)				brain heart infusion medium			8 µg/mL
CC[C@H](C)[C@H](NC(=O)[C@@H](Cc1ccccc1)NC)C(=O)OC[C@H](N)C(=O)N[C@H](CCCNC(=N)N)C(=O)N[C@@H](C(=O)N[C@H](C(=O)OC[C@H](N)C(=O)N[C@H]1C(=O)N[C@@H](C)C(=O)N[C@@H](CC(C)C)C(=O)N[C@@H]([C@@H](C)CC)C(=O)O[C@H]1C)[C@@H](C)CC)[C@@H](C)CC		broth microdilution	ATCC 51299, vancomycin-resistant	brain heart infusion broth	16 h	37 °C	1 to 2 µg/mL
COc1cc(/C=N/N2C(=O)c3ccccc3NC2c2cc(OC)c(O)c(OC)c2)cc(OC)c1O (centres unmarked)		broth microdilution	VRE 368, vancomycin-resistant	brain-heart infusion	24 h		> 256 µg/mL
O=C(NC12CC3CC(CC(C3)C1)C2)c1cc2cc(Cl)ccc2[nH]1	microbial growth	broth dilution					> 64 µM
